Measured values from different studies.
Each line is one published result; not all experiments were run side by side. Values joined by “and” are separate records of one study, mostly repeats; a detail may differ. ± marks the error that the study gave.
MAP2K1: MAP2K1 (Homo sapiens, UniProt Q02750)
Mcl1 152-308: Mcl1 152-308 (Mus musculus, UniProt P97287)
Chain of UniProt P97287 (whole entry, looked up): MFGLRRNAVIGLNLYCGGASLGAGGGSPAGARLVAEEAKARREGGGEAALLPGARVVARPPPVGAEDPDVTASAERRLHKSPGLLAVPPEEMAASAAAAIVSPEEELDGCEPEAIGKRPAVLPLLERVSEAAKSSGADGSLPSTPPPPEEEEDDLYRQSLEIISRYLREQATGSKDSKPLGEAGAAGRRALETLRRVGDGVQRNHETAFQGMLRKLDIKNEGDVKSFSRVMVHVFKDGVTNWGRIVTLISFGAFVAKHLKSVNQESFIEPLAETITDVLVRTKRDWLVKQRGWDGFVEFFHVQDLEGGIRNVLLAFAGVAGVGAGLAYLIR
B1: BRAF 442-724 (Homo sapiens, UniProt P15056); sequence looked up; chain GRRDSSDDWEIPDGQITVGQRIGSGSFGTVYKGKWHGDVAVKMLNVTAPTPQQLQAFKNEVGVLRKTRHVNILLFMGYSTKPQLAIVTQWCEGSSLYHHLHIIETKFEMIKLIDIARQTAQGMDYLHAKSIIHRDLKSNNIFLHEDLTVKIGDFGLATVKSRWSGSHQFEQLSGSILWMAPEVIRMQDKNPYSFQSDVYAFGIVLYELMTGQLPYSNINNRDQIIFMVGRGYLSPDLSKVRSNCPKAMKRLMAECLKKKRDERPLFPQILASIELLARSLPKI
B2: EFR3A 721-791 (Homo sapiens, UniProt Q14156); chain SNTEEITFEALKKAIDTSGMEEQEKEKRRLVIEKFQKAPFEEIAAQCESKANLLHDRLAQILELTIRPPPS
B3: BRAF kinase 448-723 K723G/P722S/S720E/L716E/S713E/Q709R/L706S/A688R/Y673S/I666R/K630S/V600E/L588N/Q562R (Homo sapiens, UniProt P15056); sequence looked up; chain DDWEIPDGQITVGQRIGSGSFGTVYKGKWHGDVAVKMLNVTAPTPQQLQAFKNEVGVLRKTRHVNILLFMGYSTKPQLAIVTQWCEGSSLYHHLHASETKFEMKKLIDIARQTARGMDYLHAKSIIHRDLKSNNIFLHEDNTVKIGDFGLATEKSRWSGSHQFEQLSGSILWMAPEVIRMQDSNPYSFQSDVYAFGIVLYELMTGQLPYSNINNRDQIRFMVGRGSLSPDLSKVRSNCPKRMKRLMAECLKKKRDERPSFPRILAEIEELARELSG
B4: TEPSIN L438S/W444S (Homo sapiens, UniProt Q96N21); chain MAAAPPLRDRLSFLHRLPILLKGTSDDDVPCPGYLFEEIAKISHESPGSSQCLLEYLLSRLHSSSGHGKLKVLKILLYLCSHGSSFFLLILKRNSAFIQEAAAFAGPPDPLHGNSLYQKVRAAAQDLGSTLFSDTVLPLAPSQPLGTPPATGMGSQARPHSTLQGFGYSKEHGRTAVRHQPGQAGGGWDELDSGPSSQNSSQNSDLSRVSDSGSHSGSDSHSGASREPGDLAERVEVVALSDCQQELSLVRTVTRGPRAFLSREEAQHFIKACGLLNCEAVLQLLTCHLRGTSECTQLRALCAIASLGSSDLLPQEHILLRTRPWLQELSMGSPGPVTNKATKILRHFEASCGQLSPARGTSAEPGPTAALPGPSDLLTDAVPLPGSQVFLQPLSSTPVSSRSPAPSSGMPSSPVPTPPPDASPIPAPGDPSEAEARSAESRRSRPERIPGGTDSPKRGPSSCAWSRDSLFAGMELVACPRLVGAGAAAGESCPDAPRAPQTSSQRTAAKEPPGSEPSAFAFLNA
B5: BRAF kinase 448-723 K723G/P722S/S720E/L716E/S713E/Q709R/L706S/A688R/Y673S/N661V/K630S/V600E/L588N/Q562R (Homo sapiens, UniProt P15056); sequence looked up; chain DDWEIPDGQITVGQRIGSGSFGTVYKGKWHGDVAVKMLNVTAPTPQQLQAFKNEVGVLRKTRHVNILLFMGYSTKPQLAIVTQWCEGSSLYHHLHASETKFEMKKLIDIARQTARGMDYLHAKSIIHRDLKSNNIFLHEDNTVKIGDFGLATEKSRWSGSHQFEQLSGSILWMAPEVIRMQDSNPYSFQSDVYAFGIVLYELMTGQLPYSNINVRDQIIFMVGRGSLSPDLSKVRSNCPKRMKRLMAECLKKKRDERPSFPRILAEIEELARELSG
B6: TGM1 (Heligmosomoides polygyrus); chain GCMPFSDEAATYKYVAKGPKNIEIPAQIDNSGMYPDYTHVKRFCKGLHGEDTTGWFVGICLASQWYYYEGVQECDDRRCSPLPTNDTVSFEYLKATVNPGIIFNITVHPDASGKYPELTYIKRICKNFPTDSNVQGHIIGMCYNAEWQFSSTPTCPASGCPPLPDDGIVFYEYYGYAGDRHTVGPVVTKDSSGNYPSPTHARRRCRALSQEADPGEFVAICYKSGTTGESHWEYYKNIGKCPDPRCKPLEANESVHYEYFTMTNETDKKKGPPAKVGKSGKYPEHTCVKKVCSKWPYTCSTGGPIFGECIGATWNFTALMECINARGCSSDDLFDKLGFEKVIVRKGEGSDSYKDDFARFYATGSKVIAECGGKTVRLECSNGEWHEPGTKTVHRCTKDGIRTL
B7: EFR3B 716-787 (Homo sapiens, UniProt Q9Y2G0); chain VPAEEITYETLKKAIVDSVAVEEQERERRRQVVEKFQKAPFEEIAAHCGARASLLQSKLNQIFEITIRPPPS
B8: LLGL2 13-978 (Homo sapiens, UniProt Q6P1M3); phosphorylated; chain RERLKRDLFQFNKTVEHGFPHQPSALGYSPSLRILAIGTRSGAIKLYGAPGVEFMGLHQENNAVTQIHLLPGQCQLVTLLDDNSLHLWSLKVKGGASELQEDESFTLRGPPGAAPSATQITVVLPHSSCELLYLGTESGNVFVVQLPAFRALEDRTISSDAVLQRLPEEARHRRVFEMVEALQEHPRDPNQILIGYSRGLVVIWDLQGSRVLYHFLSSQQLENIWWQRDGRLLVSCHSDGSYCQWPVSSEAQQPEPLRSLVPYGPFPCKAITRILWLTTRQGLPFTIFQGGMPRASYGDRHCISVIHDGQQTAFDFTSRVIGFTVLTEADPAATFDDPYALVVLAEEELVVIDLQTAGWPPVQLPYLASLHCSAITCSHHVSNIPLKLWERIIAAGSRQNAHFSTMEWPIDGGTSLTPAPPQRDLLLTGHEDGTVRFWDASGVCLRLLYKLSTVRVFLTDTDPNENFSAQGEDEWPPLRKVGSFDPYSDDPRLGIQKIFLCKYSGYLAVAGTAGQVLVLELNDEAAEQAVEQVEADLLQDQEGYRWKGHERLAARSGPVRFEPGFQPFVLVQCQPPAVVTSLALHSEWRLVAFGTSHGFGLFDHQQRRQVFVKCTLHPSDQLALEGPLSRVKSLKKSLRQSFRRMRRSRVSSRKRHPAGPPGEAQEGSAKAERPGLQNMELAPVQRKIEARSAEDSFTGFVRTLYFADTYLKDSSRHCPSLWAGTNGGTIYAFSLRVPPAERRMDEPVRAEQAKEIQLMHRAPVVGILVLDGHSVPLPEPLEVAHDLSKSPDMQGSHQLLVVSEEQFKVFTLPKVSAKLKLKLTALEGSRVRRVSVAHFGSRRAEDYGEHHLAVLTNLGDIQVVSLPLLKPQVRYSCIRREDVSGIASCVFTKYGQGFYLISPSEFERFSLSTKWLVEPRCLVDSAETKNHRPGNGAGPKKAPSRARNSGTQSDGEEKQPGLVMER
B9: PUX5 345-421 (Arabidopsis thaliana, UniProt Q7Y175); chain APTTSIQLRLADGTRLVSRFNNHHTVRDVRGFIDASRPGGSKEYQLLTMGFPPKQLTELDQTIEQAGIANAVVIQKF
B10: C1S 438-688 S632A (Homo sapiens, UniProt P09871); chain IIGGSDADIKNFPWQVFFDNPWAGGALINEYWVLTAAHVVEGNREPTMYVGSTSVQTSRLAKSKMLTPEHVFIHPGWKLLEVPEGRTNFDNDIALVRLKDPVKMGPTVSPICLPGTSSDYNLMDGDLGLISGWGRTEKRDRAVRLKAARLPVAPLRKCKEVKVEKPTADAEAYVFTPNMICAGGEKGMDSCKGDAGGAFAVQDPNDKTKFYAAGLVSWGPQCGTYGLYTRVKNYVDWIMKTMQENSTPRED
B11: PPARG AF-1 1-136 (Homo sapiens, UniProt P37231-1); pT75, pS112; chain MGETLGDSPIDPESDSFTDTLSANISQEMTMVDTEMPFWPTNFGISSVDLSVMEDHSHSFDIKPFTTVDFSSISTPHYEDIPFTRTDPVVADYKYDLKLQEYQSAIKVEPASPPYYSEKTQLYNKPHEEPSNSLMA
B12: IL23R 24-355 (Homo sapiens, UniProt Q5VWK5); sequence looked up; chain GITNINCSGHIWVEPATIFKMGMNISIYCQAAIKNCQPRKLHFYKNGIKERFQITRINKTTARLWYKNFLEPHASMYCTAECPKHFQETLICGKDISSGYPPDIPDEVTCVIYEYSGNMTCTWNAGKLTYIDTKYVVHVKSLETEEEQQYLTSSYINISTDSLQGGKKYLVWVQAANALGMEESKQLQIHLDDIVIPSAAVISRAETINATVPKTIIYWDSQTTIEKVSCEMRYKATTNQTWNVKEFDTNFTYVQQSEFYLEPNIKYVFQVRCQETGKRYWQPWSSLFFHKTPETVPQVTSKAFQHDTWNSGLTVASISTGHLTSDNRGDIG
B13: Lep (Mus musculus, UniProt P41160); sequence looked up; chain VPIQKVQDDTKTLIKTIVTRINDISHTQSVSAKQRVTGLDFIPGLHPILSLSKMDQTLAVYQQVLTSLPSQNVLQIANDLENLRDLLHLLAFSKSCSLPQTSGLQKPESLDGVLEASLYSTEVVALSRLQGSLQDILQQLDVSPEC
B14: CDC48A 1-190 (Arabidopsis thaliana, UniProt P54609); chain MSTPAESSDSKSKKDFSTAILERKKSPNRLVVDEAINDDNSVVSLHPATMEKLQLFRGDTILIKGKKRKDTVCIALADETCEEPKIRMNKVVRSNLRVRLGDVISVHQCPDVKYGKRVHILPVDDTVEGVTGNLFDAYLKPYFLEAYRPVRKGDLFLVRGGMRSVEFKVIETDPAEYCVVAPDTEIFCEG
B15: IgG H:S99A; V domains shown; VH QVQLVQSGAEVKKPGASVKVSCKASGYTFTNYGLSWVRQAPGQGLEWMGWISANNGDTNYGQEFQGRVTMTTDTSTSTAYMELRSLRSDDTAVYYCARDSSSAWARWFFDLWGRGTLVTVSS; VL SYVLTQPPSVSVAPGKTARITCGGNIIGSKLVHWYQQKPGQAPVLVIYDDGDRPSGIPERFSGSNSGNTATLTISRVEAGDEADYYCQVWDTGSDPVVFGGGTKLTVL
Chain of UniProt Q61790 (whole entry, looked up): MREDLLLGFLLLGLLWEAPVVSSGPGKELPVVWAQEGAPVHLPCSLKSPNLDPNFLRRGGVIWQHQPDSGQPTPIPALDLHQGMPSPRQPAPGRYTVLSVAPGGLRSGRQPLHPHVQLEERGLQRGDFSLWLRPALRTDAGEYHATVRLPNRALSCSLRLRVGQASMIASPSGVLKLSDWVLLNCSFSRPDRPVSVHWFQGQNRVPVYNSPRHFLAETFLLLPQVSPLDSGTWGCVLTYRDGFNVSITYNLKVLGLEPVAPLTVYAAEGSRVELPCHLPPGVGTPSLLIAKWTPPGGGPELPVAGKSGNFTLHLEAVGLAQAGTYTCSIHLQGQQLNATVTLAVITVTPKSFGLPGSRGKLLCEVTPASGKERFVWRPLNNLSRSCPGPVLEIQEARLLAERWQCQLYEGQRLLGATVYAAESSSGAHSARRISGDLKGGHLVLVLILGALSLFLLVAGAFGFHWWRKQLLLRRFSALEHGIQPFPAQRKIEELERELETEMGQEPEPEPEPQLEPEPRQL
Chain of UniProt P48356 (whole entry, unmodified, looked up): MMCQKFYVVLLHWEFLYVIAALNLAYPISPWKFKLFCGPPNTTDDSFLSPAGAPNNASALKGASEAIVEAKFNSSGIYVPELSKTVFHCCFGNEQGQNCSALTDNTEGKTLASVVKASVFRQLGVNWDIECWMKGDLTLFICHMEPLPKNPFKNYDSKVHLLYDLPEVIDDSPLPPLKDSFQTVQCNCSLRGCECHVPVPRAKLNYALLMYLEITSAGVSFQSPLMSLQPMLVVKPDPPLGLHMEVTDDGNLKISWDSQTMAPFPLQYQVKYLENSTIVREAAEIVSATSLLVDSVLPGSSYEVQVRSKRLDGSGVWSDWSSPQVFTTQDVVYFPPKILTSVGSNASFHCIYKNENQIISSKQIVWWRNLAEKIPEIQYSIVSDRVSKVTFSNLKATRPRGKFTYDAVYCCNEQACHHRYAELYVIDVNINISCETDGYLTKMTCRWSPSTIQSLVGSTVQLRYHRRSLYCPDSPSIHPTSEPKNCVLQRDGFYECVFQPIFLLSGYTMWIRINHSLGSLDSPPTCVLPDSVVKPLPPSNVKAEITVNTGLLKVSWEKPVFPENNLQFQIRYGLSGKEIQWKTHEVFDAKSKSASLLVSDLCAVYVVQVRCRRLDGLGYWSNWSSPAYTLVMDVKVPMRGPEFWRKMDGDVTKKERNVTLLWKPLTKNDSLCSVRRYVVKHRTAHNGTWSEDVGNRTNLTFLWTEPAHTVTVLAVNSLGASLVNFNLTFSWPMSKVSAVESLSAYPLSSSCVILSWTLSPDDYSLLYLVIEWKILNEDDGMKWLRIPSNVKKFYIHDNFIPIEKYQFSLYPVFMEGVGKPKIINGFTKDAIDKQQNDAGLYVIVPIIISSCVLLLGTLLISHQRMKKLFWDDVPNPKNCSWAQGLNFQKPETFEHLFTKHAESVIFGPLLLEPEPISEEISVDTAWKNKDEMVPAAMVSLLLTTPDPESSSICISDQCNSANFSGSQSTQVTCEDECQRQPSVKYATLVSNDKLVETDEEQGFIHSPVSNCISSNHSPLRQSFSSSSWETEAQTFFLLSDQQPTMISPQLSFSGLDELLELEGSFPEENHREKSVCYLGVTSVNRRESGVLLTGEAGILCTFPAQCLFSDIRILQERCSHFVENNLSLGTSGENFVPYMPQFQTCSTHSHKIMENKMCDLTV
Chain of UniProt Q9WTS8 (whole entry, looked up): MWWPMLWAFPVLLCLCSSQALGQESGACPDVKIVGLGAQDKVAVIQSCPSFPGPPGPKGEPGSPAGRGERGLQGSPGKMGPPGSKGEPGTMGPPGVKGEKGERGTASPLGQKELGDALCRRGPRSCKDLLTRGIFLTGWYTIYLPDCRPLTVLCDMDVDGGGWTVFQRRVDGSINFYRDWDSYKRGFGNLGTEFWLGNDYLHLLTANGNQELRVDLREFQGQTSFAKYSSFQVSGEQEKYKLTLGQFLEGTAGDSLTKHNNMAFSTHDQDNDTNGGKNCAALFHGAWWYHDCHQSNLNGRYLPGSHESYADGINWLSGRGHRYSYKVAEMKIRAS
Chain of UniProt F4IXN6 (whole entry, looked up): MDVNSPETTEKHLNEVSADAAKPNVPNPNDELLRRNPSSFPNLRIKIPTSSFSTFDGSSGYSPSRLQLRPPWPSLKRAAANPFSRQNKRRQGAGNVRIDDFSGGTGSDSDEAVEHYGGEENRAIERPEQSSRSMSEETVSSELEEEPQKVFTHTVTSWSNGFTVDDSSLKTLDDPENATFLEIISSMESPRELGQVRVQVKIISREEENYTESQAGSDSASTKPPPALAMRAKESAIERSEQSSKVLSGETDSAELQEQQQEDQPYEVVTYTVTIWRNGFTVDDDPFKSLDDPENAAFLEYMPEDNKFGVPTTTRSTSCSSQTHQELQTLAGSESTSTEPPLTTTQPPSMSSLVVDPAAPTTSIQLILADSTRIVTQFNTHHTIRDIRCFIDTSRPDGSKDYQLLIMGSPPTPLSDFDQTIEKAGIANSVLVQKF
Chain of UniProt P05155 (whole entry, unmodified, looked up): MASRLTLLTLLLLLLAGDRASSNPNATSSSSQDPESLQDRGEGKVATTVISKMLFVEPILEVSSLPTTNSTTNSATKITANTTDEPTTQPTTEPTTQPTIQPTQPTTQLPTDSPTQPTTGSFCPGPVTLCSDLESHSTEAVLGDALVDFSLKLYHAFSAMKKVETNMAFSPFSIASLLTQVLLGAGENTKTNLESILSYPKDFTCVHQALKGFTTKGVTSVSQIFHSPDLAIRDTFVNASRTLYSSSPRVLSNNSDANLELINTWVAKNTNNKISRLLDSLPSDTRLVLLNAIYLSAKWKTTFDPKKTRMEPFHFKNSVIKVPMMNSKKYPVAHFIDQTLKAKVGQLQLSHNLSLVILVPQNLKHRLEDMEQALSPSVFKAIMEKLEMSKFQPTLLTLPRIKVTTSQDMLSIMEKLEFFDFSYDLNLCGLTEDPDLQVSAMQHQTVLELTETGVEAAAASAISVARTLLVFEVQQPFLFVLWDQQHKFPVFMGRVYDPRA

Substance	partner	test	system	setting	koff
B1 (BRAF 442-724)	MAP2K1	BLI			0.00411 s⁻¹
EEEWAREIGAYLRRAADDLNAQYERRR (PUMA residues 130-156 M144A/Q140Y; N-acetyl, C-terminal amide)	Mcl1 152-308	SPR	peptide		0.0003 ± 5e-05 s⁻¹
B2 (EFR3A 721-791)	TTC7B/FAM126A FAM126A 1-308	BLI			1.68e-05 s⁻¹
B3	MAP2K1	BLI			0.00618 s⁻¹
CALLLSAPRR (GOT2 (Gallus gallus); fluorescein label)	HSPA9 mature A475W (Homo sapiens, UniProt P38646)	FP	peptide		0.00133 s⁻¹
ptsH fragment (Escherichia coli) (sequence not shown)	ptsI fragment (Escherichia coli)	NMR relaxation dispersion		with Ficoll-70	4800 s⁻¹
B4 (TEPSIN L438S/W444S)	MAP1LC3B fragment (Homo sapiens)	BLI			0.083 s⁻¹ and 0.084 s⁻¹ and 0.086 s⁻¹ and 0.082 s⁻¹
B5	MAP2K1	BLI			0.00254 s⁻¹
B6 (TGM1)	TGFBR1 extracellular domain (Homo sapiens)	SPR			0.0044 s⁻¹
CVPMTYRAC (cyclic peptide; cyclic, NOTA-Bn conjugated)	Lag3 (Mus musculus, UniProt Q61790)	SPR	peptide		0.00239 s⁻¹
B7 (EFR3B 716-787)	TTC7B/FAM126A 1-308	BLI			0.000219 s⁻¹
B8 (LLGL2 13-978)	PRKCI/PARD6B 1-596, activation loop phosphorylated	BLI		added: AMP-PNP	0.0107 s⁻¹
B9 (PUX5 345-421)	CDC48A 1-190 (Arabidopsis thaliana, UniProt P54609)	BLI		25 °C	0.13 ± 0.01 s⁻¹
KKVTFGLNRNMTAEFKKTDKSILVSPTGPSRVAFDPEQKPLH (RRP1B 682-723 (Homo sapiens, UniProt Q14684))	PPP1CA 7-330 Q20R (Homo sapiens, UniProt P62136)	SPR			0.055 s⁻¹
B10 (C1S 438-688 S632A)	SERPING1 111-500 H334A/Q338A (Homo sapiens, UniProt P05155)	SPR		added: Ca2+	0.0915 s⁻¹
B11 (PPARG AF-1 1-136)	PIN1 (Homo sapiens, UniProt Q13526)	NMR			659 s⁻¹ and 1430 s⁻¹
B12 (IL23R 24-355)	IL23A/IL12B mature heterodimer, glycosylated (Homo sapiens)	SPR	Fc fusion		0.0111 s⁻¹
B13 (Lep)	Lepr 22-839 (Mus musculus, UniProt P48356)	SPR			0.033 s⁻¹
B14 (CDC48A 1-190)	PUX6 (Arabidopsis thaliana, UniProt F4IXN6)	BLI		25 °C	0.00036 s⁻¹
B15 (IgG H:S99A)	IL13 fragment (Homo sapiens)	SPR	antibody		0.000346 s⁻¹
ficolin-A mature (Rattus norvegicus, UniProt Q9WTS8)	C1r/C1s full-length tetramer (Homo sapiens)	SPR		added: CaCl2 140 mM	0.000769 s⁻¹
EEEWAREAGAQLRRAADDLNAQYERRR (PUMA residues 130-156 M144A/I137A; N-acetyl, C-terminal amide)	Mcl1 152-308	SPR	peptide		0.0138 ± 0.0005 s⁻¹

Excerpt of the above:
Substance	partner	test	system	setting	koff
B14 (CDC48A 1-190)	PUX6 (Arabidopsis thaliana, UniProt F4IXN6)	BLI		25 °C	0.00036 s⁻¹
KKVTFGLNRNMTAEFKKTDKSILVSPTGPSRVAFDPEQKPLH (RRP1B 682-723 (Homo sapiens, UniProt Q14684))	PPP1CA 7-330 Q20R (Homo sapiens, UniProt P62136)	SPR			0.055 s⁻¹
B9 (PUX5 345-421)	CDC48A 1-190 (Arabidopsis thaliana, UniProt P54609)	BLI		25 °C	0.13 ± 0.01 s⁻¹
